Results collected from several papers.
Numbered parts are unrelated; each lists some results of a single study.

Series 1
Target: Calcium/calmodulin-dependent protein kinase type II subunit alpha (CAMK2A, Homo sapiens, UniProt Q9UQM7)
Chain of UniProt Q9UQM7 (whole entry, looked up): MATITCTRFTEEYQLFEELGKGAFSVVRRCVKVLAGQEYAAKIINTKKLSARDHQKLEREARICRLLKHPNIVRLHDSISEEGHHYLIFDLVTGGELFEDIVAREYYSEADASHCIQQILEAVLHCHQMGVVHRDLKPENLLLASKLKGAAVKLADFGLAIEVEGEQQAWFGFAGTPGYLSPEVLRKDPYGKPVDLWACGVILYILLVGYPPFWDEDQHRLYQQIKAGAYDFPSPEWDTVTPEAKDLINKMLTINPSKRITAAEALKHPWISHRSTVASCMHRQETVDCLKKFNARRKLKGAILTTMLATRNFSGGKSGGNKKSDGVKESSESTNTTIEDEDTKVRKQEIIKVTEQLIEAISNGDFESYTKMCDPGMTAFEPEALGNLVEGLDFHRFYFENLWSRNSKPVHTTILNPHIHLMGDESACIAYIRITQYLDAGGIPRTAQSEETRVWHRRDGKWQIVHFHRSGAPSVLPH
Effect on: enzyme activity
Action: inhibitor
Tested at: 0.5 µM
Baseline: control
Endpoint: remaining activity
CC[n+]1c(/C=C/N(C)c2ccccc2)n(-c2ccccc2)c2ccc(-c3nc4ccccc4s3)cc21: 103%
O=C1Cc2c([nH]c3ccc([N+](=O)[O-])cc23)-c2ccccc2N1: 88.4%
Nc1nccc(-c2c(-c3ccc(F)cc3)ncn2C2CCNCC2)n1: 100%
CC(C)(C)n1nc(Cc2cccc3ccccc23)c2c(N)ncnc21: 108%
Nc1nc(Nc2ccc(S(N)(=O)=O)cc2)nn1C(=O)c1c(F)cccc1F: 104%
Cc1cncc2cccc(S(=O)(=O)N3CCCN(C(=O)CN)C[C@@H]3C)c12: 93.2%
Nc1ncnc2c1cnn2-c1ccccc1: 105%
CC(=O)c1ccc(N2CCOCC2)cc1O: 104%
CC#CC(=O)Nc1cc2c(Nc3ccc(F)c(Cl)c3)ncnc2cn1: 108%

Series 2
Target: Beta-1 adrenergic receptor (ADRB1, Homo sapiens, UniProt P08588)
Chain of UniProt P08588 (whole entry, looked up): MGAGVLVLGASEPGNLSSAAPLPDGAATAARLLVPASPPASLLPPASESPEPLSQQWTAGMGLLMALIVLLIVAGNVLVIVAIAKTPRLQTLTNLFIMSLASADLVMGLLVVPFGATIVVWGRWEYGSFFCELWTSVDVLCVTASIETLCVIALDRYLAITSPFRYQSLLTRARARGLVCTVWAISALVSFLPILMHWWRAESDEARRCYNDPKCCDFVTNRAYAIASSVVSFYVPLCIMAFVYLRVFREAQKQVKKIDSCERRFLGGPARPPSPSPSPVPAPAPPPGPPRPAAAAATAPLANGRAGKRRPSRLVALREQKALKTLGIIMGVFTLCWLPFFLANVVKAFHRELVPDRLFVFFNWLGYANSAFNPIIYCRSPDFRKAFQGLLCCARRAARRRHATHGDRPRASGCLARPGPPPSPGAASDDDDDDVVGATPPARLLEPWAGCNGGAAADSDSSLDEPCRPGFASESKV
Effect on: binding
Technique: radioligand binding
Tested at: 10 µM
Endpoint: inhibition
CC1=C(C#N)[C@@H](c2ccc3[nH]nc(C)c3c2)C(C#N)=C(c2ccc(Cl)cc2)N1: 4.66%
O=C(Nc1cccnn1)N1CCC(=Cc2cccc(Oc3ccc(C(F)(F)F)cn3)c2)CC1: 16.5%
CC(=O)N1CCC(c2ccc(C(=O)NC(=N)N)cc2C(F)(F)F)CC1: -9.29%
CN1CCN(C(=O)C(C)(C)c2ccc(C(=O)Nc3cn4cc(-c5ccncc5)ccc4n3)cc2)CC1: -7.22%
CCOCCn1cc(C(=O)Nc2ccc(-n3nc(-c4cccnc4)cc3C(F)(F)F)cn2)ccc1=O: -9.69%
CS(=O)(=O)NCC[C@H](NC(=O)c1cncc2c1cnn2-c1ccc(F)cc1)c1ccnc(S(C)(=O)=O)c1: -20.5%
O=C1CCc2cc(Nc3cc(OC4CCOCC4)c([N+](=O)[O-])cc3Cl)ccc2N1: 3.3%
C[C@H](NC(=O)c1cnc2n1[C@](C)(Cc1ccc(C#N)cc1)C(=O)N2c1cc(Cl)c(F)c(Cl)c1)C(=O)NC1(c2ccccn2)CC1: 24.1%
COc1cccc(CNC(=O)c2nc3scc(COCc4ccc(C(=O)O)cc4)c3c(=O)[nH]2)c1: 29.9%
O=C([C@H]1C[C@H](O)CN1c1ccc(Cl)cc1)N1CC2COCC(C1)N2Cc1ccc(Cl)cc1: 6.12%
COc1nc2ccc([C@@](O)(c3ccccc3)C3CCN(C(C)=O)CC3)cc2c(Cl)c1Cc1ccc(-n2cccn2)cc1: 15.2%

Series 3
SMILES: CC(C)n1cnc(-c2ccc(F)cc2)c1-c1ncc(C(=O)Nc2ccc(N3CCN(C)CC3)cc2)[nH]1
Endpoint: patients with adverse event
Phase 2a trial, measured: haemoptysis; human, idiopathic pulmonary fibrosis; 30 mg once daily, grade 5: 0%
Phase 2a trial, measured: eosinophilia myalgia syndrome; human, idiopathic pulmonary fibrosis; 30 mg once daily, grade 1: 0%
measured: abnormal liver function test, grade 5; idiopathic pulmonary fibrosis patients; oral, 60 mg once daily: 0%
Phase 2a trial, measured: blood urea increased; human, idiopathic pulmonary fibrosis; all compound arms total, grade 5: 0%
Phase 2a trial, measured: blood pressure increased; human, idiopathic pulmonary fibrosis; 30 mg once daily, grade 3: 0%
Phase 2a trial, measured: respiratory, thoracic, mediastinal disorders; human, idiopathic pulmonary fibrosis; all compound arms, grade 4: 0%
Phase 2a trial, measured: eosinophilia myalgia syndrome; human, idiopathic pulmonary fibrosis; 30 mg once daily, grade 5: 0%
Phase 2a trial, measured: blood urea increased; human, idiopathic pulmonary fibrosis; 60 mg once daily, grade 5: 0%
Phase 2a trial, measured: blood fibrinogen increased; human, idiopathic pulmonary fibrosis; 60 mg once daily, grade 4: 0%
Phase 2a trial, measured: blood lactate dehydrogenase increased; human, idiopathic pulmonary fibrosis; 30 mg once daily, grade 5: 0%

Series 4
Species: mouse
Sample: microsomes or S9
Tested at: 2 µM
Time: 0.5 h
Endpoint: remaining compound
CC(C)OC(=O)c1ccc(NC(=O)CCCC(=O)O)cc1: 97.7%
CCOc1ccc(-c2nnc3c4cc(OC)c(OC)cc4n(Cc4ccc(Cl)cc4)cc2-3)cc1: 95.2%
Cc1ccccc1N(CC(=O)N1CCN(C/C=C/c2ccccc2)CC1)S(C)(=O)=O: 3.87%
CC(C)C(CCN1CCN(C)CC1)c1ccco1 (stereo not shown): 1.93%
COc1cc(S(=O)(=O)N2CCC(C(N)=O)CC2)c(OC)cc1Cl: 51.2%
COC(=O)c1[nH]cc(C(=O)C2CCNCC2)c1C: 75.5%
COCc1cc(=O)n2c(n1)N(Cc1cccc(C#N)c1)CC2: 87.6%
O=C(O)c1cc2ccc3oc(-c4ccccc4)nc3c2n1Cc1cccc(Cl)c1: 63.6%
O=C(c1c(OCC2CC2)cc(=O)n2c1CCCCC2)N1CCc2ccccc2C1: 0.221%
Cc1nc(O)[nH]c(=O)c1S(=O)(=O)Nc1ccccc1C(=O)NCc1ccccc1: 98.9%

Excerpt of the above (series 4):
CC(C)C(CCN1CCN(C)CC1)c1ccco1 (stereo not shown): 1.93%
COc1cc(S(=O)(=O)N2CCC(C(N)=O)CC2)c(OC)cc1Cl: 51.2%
COC(=O)c1[nH]cc(C(=O)C2CCNCC2)c1C: 75.5%
COCc1cc(=O)n2c(n1)N(Cc1cccc(C#N)c1)CC2: 87.6%
